Measured values collected from several papers.
Each numbered part is a random draw from the data of one study; scales do not carry over between parts.
Chain of UniProt Q6XUX3 (whole entry, looked up): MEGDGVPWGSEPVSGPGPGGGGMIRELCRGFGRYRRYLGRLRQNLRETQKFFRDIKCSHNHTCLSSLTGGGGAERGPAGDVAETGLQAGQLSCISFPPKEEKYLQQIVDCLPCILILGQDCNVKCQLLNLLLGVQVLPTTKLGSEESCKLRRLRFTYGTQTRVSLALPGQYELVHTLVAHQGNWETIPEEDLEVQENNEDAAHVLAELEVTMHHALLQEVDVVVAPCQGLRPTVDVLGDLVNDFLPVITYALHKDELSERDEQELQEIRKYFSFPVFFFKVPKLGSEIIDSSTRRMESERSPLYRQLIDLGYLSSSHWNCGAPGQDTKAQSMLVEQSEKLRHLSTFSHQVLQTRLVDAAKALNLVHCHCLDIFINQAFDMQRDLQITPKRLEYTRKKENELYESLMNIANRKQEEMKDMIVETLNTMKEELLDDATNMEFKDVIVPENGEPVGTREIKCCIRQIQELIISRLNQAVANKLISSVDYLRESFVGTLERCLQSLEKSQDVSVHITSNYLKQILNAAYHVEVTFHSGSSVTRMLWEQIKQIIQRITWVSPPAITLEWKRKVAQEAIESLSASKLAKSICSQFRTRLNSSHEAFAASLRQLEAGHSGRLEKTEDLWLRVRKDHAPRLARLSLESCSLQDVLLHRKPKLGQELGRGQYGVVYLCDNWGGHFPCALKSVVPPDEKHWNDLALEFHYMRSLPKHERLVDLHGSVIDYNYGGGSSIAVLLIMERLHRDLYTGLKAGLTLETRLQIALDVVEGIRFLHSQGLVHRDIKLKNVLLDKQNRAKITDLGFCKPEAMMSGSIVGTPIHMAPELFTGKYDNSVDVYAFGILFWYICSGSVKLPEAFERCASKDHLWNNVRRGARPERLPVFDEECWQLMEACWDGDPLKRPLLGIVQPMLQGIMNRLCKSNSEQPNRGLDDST
Chain of UniProt Q8WXR4 (whole entry, looked up): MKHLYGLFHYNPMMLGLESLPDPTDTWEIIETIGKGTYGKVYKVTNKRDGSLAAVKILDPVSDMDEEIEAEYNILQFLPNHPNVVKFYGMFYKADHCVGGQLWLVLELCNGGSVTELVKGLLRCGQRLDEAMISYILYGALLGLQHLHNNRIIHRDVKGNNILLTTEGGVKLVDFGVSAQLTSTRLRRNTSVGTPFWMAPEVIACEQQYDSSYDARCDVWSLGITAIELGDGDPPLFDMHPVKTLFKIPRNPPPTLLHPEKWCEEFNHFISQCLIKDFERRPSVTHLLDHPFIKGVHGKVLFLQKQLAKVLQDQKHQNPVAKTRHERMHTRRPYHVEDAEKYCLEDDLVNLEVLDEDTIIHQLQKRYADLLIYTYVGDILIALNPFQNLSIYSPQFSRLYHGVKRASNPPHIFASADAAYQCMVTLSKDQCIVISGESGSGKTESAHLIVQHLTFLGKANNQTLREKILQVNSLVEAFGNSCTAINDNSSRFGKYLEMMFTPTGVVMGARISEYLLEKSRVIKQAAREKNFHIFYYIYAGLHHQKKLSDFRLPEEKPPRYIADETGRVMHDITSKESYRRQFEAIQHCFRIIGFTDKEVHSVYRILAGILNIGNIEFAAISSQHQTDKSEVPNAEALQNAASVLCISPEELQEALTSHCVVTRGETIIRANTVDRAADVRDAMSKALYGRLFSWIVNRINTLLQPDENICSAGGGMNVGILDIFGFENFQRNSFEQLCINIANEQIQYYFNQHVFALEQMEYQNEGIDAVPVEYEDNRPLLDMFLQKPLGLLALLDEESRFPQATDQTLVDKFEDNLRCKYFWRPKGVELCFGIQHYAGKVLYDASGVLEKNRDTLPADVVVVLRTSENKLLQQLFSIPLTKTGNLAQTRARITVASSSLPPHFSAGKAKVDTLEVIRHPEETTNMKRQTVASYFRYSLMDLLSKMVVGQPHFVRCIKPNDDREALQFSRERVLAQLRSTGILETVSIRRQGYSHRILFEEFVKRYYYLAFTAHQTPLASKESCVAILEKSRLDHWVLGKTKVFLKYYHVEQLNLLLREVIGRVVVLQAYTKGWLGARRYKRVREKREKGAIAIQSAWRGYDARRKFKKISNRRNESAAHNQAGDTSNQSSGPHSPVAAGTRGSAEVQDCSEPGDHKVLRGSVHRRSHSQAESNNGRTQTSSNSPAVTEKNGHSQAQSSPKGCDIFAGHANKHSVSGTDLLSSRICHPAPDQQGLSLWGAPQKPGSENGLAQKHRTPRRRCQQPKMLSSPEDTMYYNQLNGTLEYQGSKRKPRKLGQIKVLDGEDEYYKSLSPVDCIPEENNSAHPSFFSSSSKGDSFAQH
Chain of UniProt P19525 (whole entry, looked up): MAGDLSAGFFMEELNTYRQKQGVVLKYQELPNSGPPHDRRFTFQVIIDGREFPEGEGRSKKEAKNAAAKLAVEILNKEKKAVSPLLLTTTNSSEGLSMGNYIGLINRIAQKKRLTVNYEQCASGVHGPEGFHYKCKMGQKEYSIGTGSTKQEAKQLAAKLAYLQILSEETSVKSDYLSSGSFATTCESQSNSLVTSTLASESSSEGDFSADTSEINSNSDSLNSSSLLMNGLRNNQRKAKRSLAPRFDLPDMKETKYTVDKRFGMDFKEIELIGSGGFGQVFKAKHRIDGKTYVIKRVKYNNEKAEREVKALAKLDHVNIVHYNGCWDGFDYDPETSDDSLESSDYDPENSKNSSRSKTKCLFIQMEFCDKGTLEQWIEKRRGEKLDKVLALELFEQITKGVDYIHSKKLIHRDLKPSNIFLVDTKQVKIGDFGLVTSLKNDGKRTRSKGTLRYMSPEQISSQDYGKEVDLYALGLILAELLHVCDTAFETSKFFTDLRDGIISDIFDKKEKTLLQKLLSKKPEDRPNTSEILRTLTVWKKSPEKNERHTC
Chain of UniProt P16591 (whole entry, looked up): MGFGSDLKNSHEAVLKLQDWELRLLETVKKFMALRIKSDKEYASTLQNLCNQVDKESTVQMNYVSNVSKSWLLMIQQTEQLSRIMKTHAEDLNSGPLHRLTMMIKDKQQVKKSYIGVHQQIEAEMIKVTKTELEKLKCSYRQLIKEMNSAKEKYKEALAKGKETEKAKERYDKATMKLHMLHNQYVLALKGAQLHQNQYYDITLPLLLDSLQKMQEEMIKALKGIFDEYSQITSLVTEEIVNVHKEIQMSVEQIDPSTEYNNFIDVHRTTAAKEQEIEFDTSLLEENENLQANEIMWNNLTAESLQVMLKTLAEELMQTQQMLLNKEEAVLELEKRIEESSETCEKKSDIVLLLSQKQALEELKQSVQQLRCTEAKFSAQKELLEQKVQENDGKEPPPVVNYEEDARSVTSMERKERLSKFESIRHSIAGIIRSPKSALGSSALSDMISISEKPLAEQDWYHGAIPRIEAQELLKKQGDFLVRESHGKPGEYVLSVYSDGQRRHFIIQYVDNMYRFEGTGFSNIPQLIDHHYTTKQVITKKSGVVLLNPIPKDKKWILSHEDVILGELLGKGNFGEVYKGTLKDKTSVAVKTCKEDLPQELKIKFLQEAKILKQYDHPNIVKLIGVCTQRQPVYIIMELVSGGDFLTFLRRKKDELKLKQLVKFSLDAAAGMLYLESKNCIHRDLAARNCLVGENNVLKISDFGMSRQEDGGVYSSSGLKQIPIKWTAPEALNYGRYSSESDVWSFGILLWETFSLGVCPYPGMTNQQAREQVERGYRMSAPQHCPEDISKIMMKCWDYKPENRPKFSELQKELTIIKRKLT
Chain of UniProt Q96J92 (whole entry, looked up): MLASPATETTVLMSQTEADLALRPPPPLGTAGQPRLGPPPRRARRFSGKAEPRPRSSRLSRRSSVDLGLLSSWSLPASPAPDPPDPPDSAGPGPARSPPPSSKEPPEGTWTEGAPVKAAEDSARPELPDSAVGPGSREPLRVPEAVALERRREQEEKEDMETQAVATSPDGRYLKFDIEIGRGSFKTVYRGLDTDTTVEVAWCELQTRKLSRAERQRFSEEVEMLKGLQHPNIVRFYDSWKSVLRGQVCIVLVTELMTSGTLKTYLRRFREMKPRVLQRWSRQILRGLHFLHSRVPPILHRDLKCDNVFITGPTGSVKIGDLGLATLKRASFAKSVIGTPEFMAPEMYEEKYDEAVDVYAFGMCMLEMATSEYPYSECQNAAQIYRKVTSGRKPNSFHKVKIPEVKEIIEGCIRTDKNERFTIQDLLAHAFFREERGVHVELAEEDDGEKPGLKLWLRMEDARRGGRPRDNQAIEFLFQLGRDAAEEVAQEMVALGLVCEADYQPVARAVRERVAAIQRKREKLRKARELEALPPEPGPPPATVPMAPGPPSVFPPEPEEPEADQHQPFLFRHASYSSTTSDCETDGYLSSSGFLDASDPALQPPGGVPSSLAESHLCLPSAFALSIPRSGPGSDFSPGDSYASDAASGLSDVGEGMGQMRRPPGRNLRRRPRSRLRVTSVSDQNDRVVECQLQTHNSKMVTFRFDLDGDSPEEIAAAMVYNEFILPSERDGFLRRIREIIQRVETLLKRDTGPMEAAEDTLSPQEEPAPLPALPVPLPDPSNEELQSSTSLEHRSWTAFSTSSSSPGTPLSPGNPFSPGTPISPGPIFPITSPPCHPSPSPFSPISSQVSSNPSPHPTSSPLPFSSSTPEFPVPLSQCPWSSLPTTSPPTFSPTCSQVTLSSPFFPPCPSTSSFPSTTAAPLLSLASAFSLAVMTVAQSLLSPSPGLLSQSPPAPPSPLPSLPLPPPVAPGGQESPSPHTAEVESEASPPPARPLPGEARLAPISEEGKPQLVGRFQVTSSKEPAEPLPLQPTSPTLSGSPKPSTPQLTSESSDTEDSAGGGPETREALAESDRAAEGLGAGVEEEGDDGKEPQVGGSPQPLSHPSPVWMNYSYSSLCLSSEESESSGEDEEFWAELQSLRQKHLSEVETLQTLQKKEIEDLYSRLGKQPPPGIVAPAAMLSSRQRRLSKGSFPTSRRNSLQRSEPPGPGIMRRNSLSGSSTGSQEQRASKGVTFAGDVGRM

Sample 1 — method: competition with immobilised ligand; tested at: 1 µM
SMILES: CNC(=O)Nc1ccc2c(c1)CC[C@@]21OC(=O)N(CC(=O)N(Cc2ccc(F)cc2)[C@@H](C)C(F)(F)F)C1=O
| target | observed | remaining binding |
| --- | --- | --- |
| WNK4 (Homo sapiens, UniProt Q96J92) | cell-free assay | 73% |
| STK39 (Homo sapiens, UniProt Q9UEW8) | cell-free assay | 100% |
| Myosin-IIIb (MYO3B, Homo sapiens, UniProt Q8WXR4) | binding | 88% |
| BLK (Homo sapiens, UniProt P51451) | cell-free assay | 100% |
| PRKG2 (Homo sapiens, UniProt Q13237) | cell-free assay | 86% |
| WEE2 (Homo sapiens, UniProt P0C1S8) | cell-free assay | 75% |
| FER (Homo sapiens, UniProt P16591) | cell-free assay | 87% |
| EIF2AK2 (Homo sapiens, UniProt P19525) | cell-free assay | 92% |
| LYN (Homo sapiens, UniProt P07948) | cell-free assay | 89% |
| PDGFRB (Homo sapiens, UniProt P09619) | cell-free assay | 100% |
| DSTYK (Homo sapiens, UniProt Q6XUX3) | cell-free assay | 78% |
| EGFR (Homo sapiens, UniProt P00533, A750P/del747-749) | cell-free assay | 95% |
| LTK (Homo sapiens, UniProt P29376) | cell-free assay | 100% |
| Tyrosine-protein kinase ABL1, phosphorylated (ABL1, Homo sapiens, UniProt P00519) | cell-free assay | 72% |
| GAK (Homo sapiens, UniProt O14976) | cell-free assay | 100% |
| FLT1 (Homo sapiens, UniProt P17948) | cell-free assay | 100% |

Sample 2 — observed: enzyme activity; mode: inhibitor; tested at: 0.5 µM; relative to: control
Target: Dual serine/threonine and tyrosine protein kinase (DSTYK, Homo sapiens, UniProt Q6XUX3)
| Compound | remaining activity |
| --- | --- |
| OCC(O)CCON=C1C(c2c(O)[nH]c3ccccc23)=Nc2ccccc21 (stereo not drawn) | 104% |
| CN(C)c1ccc(C=C2C(=O)Nc3ccccc32)cc1 | 103% |
| Cc1nc(-c2ccccc2)c(-c2ccncc2)o1 | 91% |
| Nc1ncnc2n[nH]c(Nc3ccc(F)cc3)c12 | 109% |
| O=C(CCCc1ccc(-c2ccccc2F)cc1)Nc1ccc(O)cc1 | 103% |
| COc1ccc(OC)c2c(=S)c3ccccc3[nH]c12 | 91.3% |
| Oc1ccc(-c2nc(-c3ccncc3)c(-c3ccc(F)cc3)[nH]2)cc1 | 100% |
| O=C1NC(=O)C(c2cn(CCCO)c3ncccc23)=C1c1cnccn1 | 78% |
| CC(C)[C@H](CO)Nc1nc(Nc2cc(N)cc(Cl)c2)c2ncn(C(C)C)c2n1 | 93.1% |
| O=C1NC(=O)C(c2cn(CCCn3ccnc3)c3ccccc23)=C1Nc1ccccc1 | 102% |
| O=S(=O)(c1cccc2cnccc12)N1CCCNCC1 | 90.4% |
| COc1cc2nccc(Oc3ccc(NC(=S)NC(=O)c4ccccc4C)cc3)c2cc1OC | 112% |
| COc1cc2ncnc(Nc3ccc(Oc4ccccc4)cc3)c2cc1OC | 91.6% |
| Cn1c2ccccc2c2c3c(c4c5ccccc5n(CCC#N)c4c21)CNC3=O | 9.91% |

Sample 3 — species: mouse; matrix: microsomes or S9; tested at: 2 µM; time: 0.5 h
| SMILES | remaining compound [%] |
| --- | --- |
| COc1ccc(C)cc1N(C)C(=O)c1cc2ccc3cccnc3c2[nH]1 | 0.279 |
| CCOC1CC(OC(=O)c2csc(-c3ccco3)n2)C12CCC2 (stereo not drawn) | 0.00591 |
| C[C@@H]1C[C@H]2[C@@H]3CCC4=CC(=O)C=C[C@]4(C)C3(F)[C@@H](O)C[C@]2(C)[C@@]1(O)C(=O)CO (stereo partly drawn) | 88.8 |
| COCCn1c(CCNC(=O)C2CCCN(c3ncccn3)C2)nc2ccccc21 (stereo not drawn) | 0.383 |
| Cc1ccc2c(c1)N(C(=O)c1cccc(F)c1)CC(C)O2 (stereo not drawn) | 1.85 |

Other studies, line by line
| SMILES | method | species | dose | quantity | result |
| --- | --- | --- | --- | --- | --- |
| CC(C)n1cnc(-c2ccc(F)cc2)c1-c1ncc(C(=O)Nc2ccc(N3CCN(C)CC3)cc2)[nH]1 | phase 2a clinical trial | patients with idiopathic pulmonary fibrosis | 30 mg once daily | patients with Gingivitis TEAE | 0% |

A few entries again (sample 1):
| target | observed | remaining binding |
| --- | --- | --- |
| Myosin-IIIb (MYO3B, Homo sapiens, UniProt Q8WXR4) | binding | 88% |
| BLK (Homo sapiens, UniProt P51451) | cell-free assay | 100% |
| PRKG2 (Homo sapiens, UniProt Q13237) | cell-free assay | 86% |
| WEE2 (Homo sapiens, UniProt P0C1S8) | cell-free assay | 75% |
